# Published values from different studies.
# Every numbered part comes from another study and shows a few of its results, in no order. Several values in a cell are separate wells, animals, samples, runs or records.
# UniProt Q99755, sequence (whole entry, looked up): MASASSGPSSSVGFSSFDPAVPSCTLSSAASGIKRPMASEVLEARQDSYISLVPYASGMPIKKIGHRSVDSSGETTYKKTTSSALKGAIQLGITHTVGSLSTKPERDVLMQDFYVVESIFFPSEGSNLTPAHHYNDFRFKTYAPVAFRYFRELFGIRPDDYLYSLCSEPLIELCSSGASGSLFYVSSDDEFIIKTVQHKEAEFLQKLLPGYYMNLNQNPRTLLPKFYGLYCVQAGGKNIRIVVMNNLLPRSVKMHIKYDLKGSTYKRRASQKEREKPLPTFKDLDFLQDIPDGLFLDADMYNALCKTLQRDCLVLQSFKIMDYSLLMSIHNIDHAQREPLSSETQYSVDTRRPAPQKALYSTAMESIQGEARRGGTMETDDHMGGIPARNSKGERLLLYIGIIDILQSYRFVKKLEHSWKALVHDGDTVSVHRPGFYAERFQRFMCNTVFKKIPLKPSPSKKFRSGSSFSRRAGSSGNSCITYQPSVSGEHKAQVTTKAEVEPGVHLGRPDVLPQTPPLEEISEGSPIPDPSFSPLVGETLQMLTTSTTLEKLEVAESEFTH
# UniProt Q02763, sequence (whole entry, looked up): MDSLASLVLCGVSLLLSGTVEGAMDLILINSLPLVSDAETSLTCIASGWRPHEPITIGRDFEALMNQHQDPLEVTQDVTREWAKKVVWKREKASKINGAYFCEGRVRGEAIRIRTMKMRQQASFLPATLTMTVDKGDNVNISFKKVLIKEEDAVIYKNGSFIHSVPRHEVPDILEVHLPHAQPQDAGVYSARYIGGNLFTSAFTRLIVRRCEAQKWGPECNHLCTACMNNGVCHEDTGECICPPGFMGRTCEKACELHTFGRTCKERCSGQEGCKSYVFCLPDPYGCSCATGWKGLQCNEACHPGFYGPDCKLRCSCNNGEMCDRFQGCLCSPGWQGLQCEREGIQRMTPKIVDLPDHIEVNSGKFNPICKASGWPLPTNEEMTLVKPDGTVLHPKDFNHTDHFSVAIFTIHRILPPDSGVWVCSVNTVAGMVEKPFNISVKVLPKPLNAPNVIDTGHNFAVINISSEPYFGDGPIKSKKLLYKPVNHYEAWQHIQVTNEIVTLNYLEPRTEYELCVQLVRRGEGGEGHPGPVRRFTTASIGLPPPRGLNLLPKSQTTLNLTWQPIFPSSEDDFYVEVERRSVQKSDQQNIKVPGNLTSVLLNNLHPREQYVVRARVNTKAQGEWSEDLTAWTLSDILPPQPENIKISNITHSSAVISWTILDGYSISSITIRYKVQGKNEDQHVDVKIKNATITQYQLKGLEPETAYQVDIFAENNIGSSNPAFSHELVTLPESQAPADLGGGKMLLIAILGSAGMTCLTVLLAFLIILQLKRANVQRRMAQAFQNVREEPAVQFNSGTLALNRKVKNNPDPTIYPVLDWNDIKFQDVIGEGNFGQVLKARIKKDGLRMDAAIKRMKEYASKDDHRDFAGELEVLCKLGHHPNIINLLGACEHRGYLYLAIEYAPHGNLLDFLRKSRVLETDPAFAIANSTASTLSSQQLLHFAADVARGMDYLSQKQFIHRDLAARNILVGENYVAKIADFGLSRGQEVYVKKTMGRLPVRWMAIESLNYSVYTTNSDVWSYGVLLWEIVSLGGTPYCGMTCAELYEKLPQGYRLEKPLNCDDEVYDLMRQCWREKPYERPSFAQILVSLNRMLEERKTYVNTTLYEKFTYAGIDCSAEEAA
# UniProt P50613, sequence (whole entry, looked up): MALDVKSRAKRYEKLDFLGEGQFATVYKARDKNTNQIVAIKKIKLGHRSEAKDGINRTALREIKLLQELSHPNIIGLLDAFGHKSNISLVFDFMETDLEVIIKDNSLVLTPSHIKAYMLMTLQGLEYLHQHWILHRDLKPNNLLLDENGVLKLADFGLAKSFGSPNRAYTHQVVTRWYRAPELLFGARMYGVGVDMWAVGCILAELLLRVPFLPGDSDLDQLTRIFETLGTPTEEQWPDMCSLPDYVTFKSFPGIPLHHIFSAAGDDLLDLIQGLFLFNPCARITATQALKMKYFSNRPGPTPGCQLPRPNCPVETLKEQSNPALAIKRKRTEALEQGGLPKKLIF
# UniProt Q5VT25, sequence (whole entry, looked up): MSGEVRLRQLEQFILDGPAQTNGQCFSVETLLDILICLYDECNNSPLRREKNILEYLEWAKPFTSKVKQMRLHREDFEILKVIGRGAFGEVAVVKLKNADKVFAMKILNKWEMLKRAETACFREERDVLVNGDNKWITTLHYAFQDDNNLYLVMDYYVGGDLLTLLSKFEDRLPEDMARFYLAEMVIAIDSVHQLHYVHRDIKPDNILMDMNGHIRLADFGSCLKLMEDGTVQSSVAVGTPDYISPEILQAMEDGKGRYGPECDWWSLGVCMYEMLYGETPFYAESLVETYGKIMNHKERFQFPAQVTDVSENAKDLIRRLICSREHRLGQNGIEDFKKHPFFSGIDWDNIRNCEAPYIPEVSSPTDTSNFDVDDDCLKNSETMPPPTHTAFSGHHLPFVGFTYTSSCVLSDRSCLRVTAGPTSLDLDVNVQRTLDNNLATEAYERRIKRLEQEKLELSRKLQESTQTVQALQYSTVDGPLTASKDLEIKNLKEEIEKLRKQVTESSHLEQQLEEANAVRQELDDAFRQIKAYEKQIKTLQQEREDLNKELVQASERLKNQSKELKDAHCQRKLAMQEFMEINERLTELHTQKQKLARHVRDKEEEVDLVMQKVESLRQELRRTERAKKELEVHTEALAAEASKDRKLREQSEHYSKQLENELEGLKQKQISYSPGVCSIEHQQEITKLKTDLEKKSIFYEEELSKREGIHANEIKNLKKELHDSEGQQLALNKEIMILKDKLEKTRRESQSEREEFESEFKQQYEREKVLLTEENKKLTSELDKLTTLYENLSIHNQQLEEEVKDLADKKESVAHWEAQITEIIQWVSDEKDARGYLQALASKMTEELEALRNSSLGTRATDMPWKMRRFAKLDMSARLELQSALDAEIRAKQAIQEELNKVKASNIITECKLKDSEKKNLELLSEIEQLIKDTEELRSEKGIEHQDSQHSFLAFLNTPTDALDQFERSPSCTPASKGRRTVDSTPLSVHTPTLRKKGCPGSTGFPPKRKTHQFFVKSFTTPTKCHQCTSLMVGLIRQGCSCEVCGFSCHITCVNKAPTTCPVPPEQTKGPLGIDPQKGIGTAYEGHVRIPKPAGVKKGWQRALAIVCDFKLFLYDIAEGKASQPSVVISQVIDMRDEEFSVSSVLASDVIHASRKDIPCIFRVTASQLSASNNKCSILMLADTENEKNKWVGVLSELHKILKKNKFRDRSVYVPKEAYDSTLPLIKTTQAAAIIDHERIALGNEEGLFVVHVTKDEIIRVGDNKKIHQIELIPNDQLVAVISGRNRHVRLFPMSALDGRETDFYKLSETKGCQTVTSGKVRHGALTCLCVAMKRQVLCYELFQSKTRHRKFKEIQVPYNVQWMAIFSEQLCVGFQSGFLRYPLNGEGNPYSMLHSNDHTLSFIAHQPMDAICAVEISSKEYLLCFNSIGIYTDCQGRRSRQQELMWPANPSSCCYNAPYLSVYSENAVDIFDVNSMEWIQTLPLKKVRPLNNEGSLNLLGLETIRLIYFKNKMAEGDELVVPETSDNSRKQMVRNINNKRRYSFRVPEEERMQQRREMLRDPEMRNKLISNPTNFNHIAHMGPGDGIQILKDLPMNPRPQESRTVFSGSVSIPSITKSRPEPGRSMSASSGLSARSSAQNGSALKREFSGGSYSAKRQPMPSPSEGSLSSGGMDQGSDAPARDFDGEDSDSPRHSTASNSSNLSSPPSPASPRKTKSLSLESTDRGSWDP

# Set 1
# SMILES: CCOc1ccc(Nc2c3c(nc4ccccc24)CCC3)cc1
# Organism: Leishmania donovani
# Read-out: parasite killing
# Strain: DD8
test system,conditions,inhibition
intracellular amastigotes,"4 µM, 72 h",84% and 94% and 91%
intracellular amastigotes,"8 µM, 96 h",100%
intracellular amastigotes,"0.2 µM, 72 h",14% and 16% and 17%
intracellular amastigotes,"8 µM, 72 h",100%
intracellular amastigotes,"0.8 µM, 96 h",58%
promastigotes,"6.66 µM, 24 h",70% and 62% and 74%

# Set 2
# Cell line: mouse MPNST tumor cells
# Method: high-content nuclear imaging
# Item: cell number
# Concentration: 10 µM
# Time: 12 h
# Notes: mean of 2 replicates
# Baseline: plate mean
# Reading: higher = more cells
SMILES,nuclei count
Fc1ccccc1CNCc1ccc(-c2ccnc3[nH]ccc23)cc1,0.459 z-score
Cc1cc(Nc2cc(Cl)nc(Oc3ccc([N+](=O)[O-])cc3)n2)n[nH]1,-4.02 z-score
COc1cc(NC(=O)c2ccccn2)ccc1Cl,0.0454 z-score
CCOC(=O)c1c(-c2ccccc2)oc2ccc(Oc3c([N+](=O)[O-])ncn3C)cc12,-3.01 z-score

# Set 3
# Structure (SMILES): O=C1NC(c2ccccn2)Sc2ccccc21 (centres unmarked)
# Read-out: cell-free assay
# Method: competition with immobilised ligand
# Concentration: 1 µM
target,remaining binding [%]
"Vascular endothelial growth factor receptor 3 (FLT4, Homo sapiens, UniProt P35916)",70
"Angiopoietin-1 receptor (TEK, Homo sapiens, UniProt Q02763)",100
"Serine/threonine-protein kinase MRCK alpha (CDC42BPA, Homo sapiens, UniProt Q5VT25)",84
"Cyclin-dependent kinase 7 (CDK7, Homo sapiens, UniProt P50613)",77
"Receptor-type tyrosine-protein kinase FLT3 (FLT3, Homo sapiens, UniProt P36888, N841I)",60
"Phosphatidylinositol 4-phosphate 5-kinase type-1 alpha (PIP5K1A, Homo sapiens, UniProt Q99755)",100
"Mitogen-activated protein kinase kinase kinase 5 (MAP3K5, Homo sapiens, UniProt Q99683)",72

# Set 4
# Target: RAC-gamma serine/threonine-protein kinase (AKT3, Homo sapiens, UniProt Q9Y243)
# UniProt Q9Y243, sequence (whole entry, looked up): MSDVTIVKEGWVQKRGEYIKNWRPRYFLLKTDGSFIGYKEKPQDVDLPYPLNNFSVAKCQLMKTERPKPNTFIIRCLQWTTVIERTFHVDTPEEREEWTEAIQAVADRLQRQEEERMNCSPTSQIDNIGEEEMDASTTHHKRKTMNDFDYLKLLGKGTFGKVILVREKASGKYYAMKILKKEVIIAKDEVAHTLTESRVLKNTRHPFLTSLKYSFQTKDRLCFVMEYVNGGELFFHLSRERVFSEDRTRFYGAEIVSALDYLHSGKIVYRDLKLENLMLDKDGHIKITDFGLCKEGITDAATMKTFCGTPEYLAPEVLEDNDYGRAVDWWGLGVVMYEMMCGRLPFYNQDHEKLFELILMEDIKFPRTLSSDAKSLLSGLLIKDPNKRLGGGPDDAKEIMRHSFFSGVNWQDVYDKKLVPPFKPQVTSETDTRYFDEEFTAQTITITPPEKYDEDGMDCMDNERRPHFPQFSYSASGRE
# Read-out: enzyme activity
# Mode: inhibitor
# Concentration: 0.5 µM
# Baseline: control
SMILES,remaining activity [%]
Oc1ccc(-c2nc(-c3ccncc3)c(-c3ccc(F)cc3)[nH]2)cc1,98.4
Nc1ncnc2n[nH]c(Nc3ccc(F)cc3)c12,104
Cn1c2ccccc2c2c3c(c4c5ccccc5n(CCC#N)c4c21)CNC3=O,85.3
O=c1c2ccccc2[nH]c(=S)n1CCN1CCC(=C(c2ccc(F)cc2)c2ccc(F)cc2)CC1,99.4
COc1ccc(C(=O)Nc2sc3c(c2C(N)=O)CCCC3)cc1OC,102
O=C(CCCc1ccc(-c2ccccc2F)cc1)Nc1ccc(O)cc1,111
CCOC(=O)c1c(C)[nH]c(/C=C2\C(=O)Nc3ccccc32)c1C,103
CO[C@H]1C[C@@H]2CC[C@@H](C)[C@@](O)(O2)C(=O)C(=O)N2CCCC[C@H]2C(=O)O[C@H]([C@H](C)C[C@@H]2CC[C@@H](O)[C@H](OC)C2)CC(=O)[C@H](C)/C=C(\C)[C@@H](O)[C@@H](OC)C(=O)[C@H](C)C[C@H](C)/C=C/C=C/C=C/1C,97.8
Nc1[nH]nc2nc3ccccc3nc12,95.3
N#CC(C#N)=C(N)/C(C#N)=C/c1ccc(O)cc1,95.8
COc1cc2nccc(Oc3ccc(NC(=S)NC(=O)c4ccccc4C)cc3)c2cc1OC,95.9
O=C(Nc1cccc(Nc2cc(Nc3cccc(C(F)(F)F)c3)ncn2)c1)C1CC1,99.4
OCC(O)CCON=C1C(c2c(O)[nH]c3ccccc23)=Nc2ccccc21 (centres unmarked),92.9
O=C1NC(=O)C(c2cn(CCCO)c3ncccc23)=C1c1cnccn1,101

# Further values, each from its own experiment
Structure (SMILES),test system,conditions,endpoint,result
CN(N=O)C(=O)N[C@@H]1[C@@H](O)[C@H](O)[C@@H](CO)O[C@@H]1O,"mice, STZ diabetic neuropathy","dose not given, 14 days after STZ",blood glucose,499 mg/dL and 458 mg/dL and 450 mg/dL and 582 mg/dL and 466 mg/dL

# For quick reference, copied from above (set 3):
target,remaining binding [%]
"Receptor-type tyrosine-protein kinase FLT3 (FLT3, Homo sapiens, UniProt P36888, N841I)",60
"Phosphatidylinositol 4-phosphate 5-kinase type-1 alpha (PIP5K1A, Homo sapiens, UniProt Q99755)",100
"Mitogen-activated protein kinase kinase kinase 5 (MAP3K5, Homo sapiens, UniProt Q99683)",72
